Experimental data collected from several papers.
Every numbered part comes from another study and shows a few of its results, in no order.

Set 1
Target: RNA binding protein fox-1 homolog 2, RRM domain, GST-SBP tag (RBFOX2, Homo sapiens, UniProt O43251-10, residues 100-194)
Method: RNA Bind-n-Seq
Form: RNA
Medium: in vitro
Concentration: 365 nM
Setting: natural RNA segment, single round, ends assumed
Reference: no-protein control
Reading: higher = stronger binding
Measurement: RBNS enrichment (R)
All sequences stand within: GGGAGUUCUACAGUCCGACGAUC … UGGAAUUCUCGGGUGCCAA
Residues (chain): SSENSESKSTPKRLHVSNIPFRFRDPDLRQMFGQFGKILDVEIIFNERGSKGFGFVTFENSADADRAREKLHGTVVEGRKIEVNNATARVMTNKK
GACCAGGCGCUUGAUUGGGUGUUCAGUAUGGAGUAGAUGAAGUGCGUAUUUAUUUAAGGCGAAAGCUUUGACCUGAGCUGUCUUCCUCUCCCCUGUACAUGUACUGUAGA: 0.377
UCCUCGAGUGUCCAGUCUCAGGUGAUCUUGACCUGAUCGGAGUCGCCAGGCAGUAUAUCCAGUUAGAACUUCCGGCUUUUGCAUUAGCUUGUCUGAUGCUCAUGCCCCAC: 0.264
UAGAAAUAUUUCUGAACAUAUCAUGUAAUUUUUUUAAGAUAACUGUGAAAACAUUACAUACAUGUAUAUAUUUAGACAUGAGCUGCUGCUAUAUAUUGAAUGGGCCCUUU: 0.618
UUGAGUUGAGAGCUUUUUUAGGUUUGAGGGGCUUGAUUUUUUUGUAAAUAAAAUUAUGCUUUGUGGCUAUCCAUCAACAUAAGUAUAAAAAGAAAGAACGCUUCAACCCC: 0.292
UUGUAGAAUUGUUAUAGAUUACCGUGCAUUAGCACAGAUUUUAAUUGUCAUGAUUGCAGACUACAGAUCUGCUUUUUGAAAUGAAAUUUAAACAUUAAAAAUGGAACUGU: 0.591
CAGUGGAUCCAUGACUUACGUGUCACAGAAGAAUGACUGUUGCCGAAGGAAGCUUAAAAAUUCUAUAUCCAGAUAAAAGACCACAAUAAAGCAAAAGUCACCUAUACCGU: 0.27
UGCUCAUGGAAUCCAGUCGAGCAGAAGUUUCGGACAGCCCACCACAUCACCAUGUUCCUUGUUAACAUUUUUCUUUUCGCAGAGAGGAAAAUAUGUUUUUGCUGCUUUAU: 0.576
UACUCAUAUAAAAUGAACAGGAAAGUGUUAGUGAUUGGGUGAUUUGAGCUACAUCUUGUUGAGCAAGGGGAGUGAAACCACAGAAACUGUUAAAUUGAACGUAAAUAACU: 0.581
CGAGGGCUCCGGAUCCCUUAUCCUACUUAGCAGUGUUGGUCUCUGGGGCUGGAAGCCGAGCGCAUGCUGGGAGCGGUACUGUCAGAAGUGAGCCCAGUUAGUACCCCGCU: 3.02
AGGUGAGGCCUGCUGUGCUGCCCGCACACCUGAGUGCAAAACCAAGCACUGUGGGCAUGGUGUUUCCCUCUCUGGGGUAGAGUACGCCCUCUCGCUGGGCAAAGAGGAAG: 0.28
CAAAAUACUAAAGCUGGGAGGAAACUUGGAGAUCUAUAGGUCAAACCUCCCCAUUGGGCUGAUGAGAAAAUACACGCAGGCCUAGCAUGGUGCCUGCCACCAUGGUGGGA: 2.62
CCUCUGCCUGGUGGCUGGUGUAUCCCAACUGGGCAAGAGAUGGCAGAGGGUCCCCCUUGUGGGUGCGCUUGGAUGUGCAGAGCCUUCUCCAUGGAUUUUCUUCCCUGUAA: 0.379

Set 2
Target: Histone acetyltransferase KAT6A, both winged helices, GST fusion (KAT6A, Homo sapiens, UniProt Q92794, residues 1-181)
Method: protein binding microarray
Form: double-stranded DNA, one strand shown
Medium: in vitro
Concentration: not given
Setting: 8-mer, flanks averaged, mean of 2 arrays, mostly near background
Reference: not given
Reading: higher = stronger binding
Measurement: E-score
Target sequence (chain): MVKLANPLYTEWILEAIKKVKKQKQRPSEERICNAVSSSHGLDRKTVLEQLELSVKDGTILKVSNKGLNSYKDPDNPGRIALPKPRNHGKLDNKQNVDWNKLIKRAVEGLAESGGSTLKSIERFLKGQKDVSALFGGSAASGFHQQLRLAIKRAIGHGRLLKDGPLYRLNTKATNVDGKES
AGAGTGCG: 0.104
CCACCGGA: 0.162
AGCTCGCG: 0.147
GAGCGTCA: 0.0717
CCTGCTGC: -0.0189
GAGCTCCC: -0.0722
AACACGAA: 0.00974
ATAAAGTC: 0.0215
GATACGAC: 0.0486
CCACGTCG: 0.0715
CCAGCCGC: 0.26
ATAGATTA: -0.0305
TCGTCTCA: -0.0157
ACGCCCAT: 0.0249
ACATTTAC: -0.0572
AATGTGCG: 0.107

Set 3
Target: Interferon regulatory factor 3, full length, phosphomimetic (IRF3, Homo sapiens, UniProt Q14653, residues 1-427, S386D/S396D/S398D/S402D/T404D/S405D)
Method: protein-binding microarray
Form: double-stranded DNA, one strand shown
Medium: in vitro
Concentration: 2540 nM top
Setting: 60-bp whole probe
Together with: salmon DNA 0.4 mg/ml
Reference: random background probes
Reading: higher = stronger binding
Measurement: fitted relative affinity
All sequences stand within: GCCTAGCAC … GTCTTGATTCGCTTGACGCTGCTG
Construct (chain): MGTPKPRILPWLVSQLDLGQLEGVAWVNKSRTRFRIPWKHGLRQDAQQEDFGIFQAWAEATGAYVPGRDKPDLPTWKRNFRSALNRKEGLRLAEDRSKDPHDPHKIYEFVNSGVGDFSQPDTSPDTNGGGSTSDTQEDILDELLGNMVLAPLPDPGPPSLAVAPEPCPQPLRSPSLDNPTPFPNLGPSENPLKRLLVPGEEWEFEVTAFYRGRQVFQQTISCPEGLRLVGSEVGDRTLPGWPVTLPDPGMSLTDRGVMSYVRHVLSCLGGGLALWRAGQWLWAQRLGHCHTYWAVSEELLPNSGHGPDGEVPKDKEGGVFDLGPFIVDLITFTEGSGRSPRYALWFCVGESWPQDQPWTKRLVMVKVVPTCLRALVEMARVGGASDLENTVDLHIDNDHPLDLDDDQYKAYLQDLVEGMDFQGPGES
TCACCTCTGGGATCCCAGACTGTGCTA: 0.311 z-score
GTCGATTCCAGTTTCGAGACGTGCTAG: 3.77 z-score
GACGATTTCAGTTGCGAGACGTGCTAG: 1.48 z-score
GAAGGACTGGGACTGGGGACGTGCTAG: -1.02 z-score
TTAGGTTTCGGGGATCGGTTAGTGCTA: 2.32 z-score
GACGGTCTCGGACTGGCGACGTGCTAG: 0.172 z-score
GGAAGTATGACTCTGCCTCTGTGCTAG: -0.656 z-score
TCACTCTTCTGCTTCCTACTGTGCTAG: 1.24 z-score
GACGGTTTCGGAATCGGGACGTGCTAG: 7.75 z-score
TCACATTTACATTTTAGACTGTGCTAG: 1.8 z-score
TTGGGACTGGACTTTCGGTTAGTGCTA: 0.613 z-score
TTCATTTTGTGTCTGGGCATGTGCTAG: 0.611 z-score
GACGGTTTCGACTATCGTGACGTGCTA: 2.81 z-score
AACGGACTGCTTCTCCTGACGTGCTAG: -0.183 z-score
TCAATTCTAGCCTATAGAACTGTGCTA: 0.38 z-score
TTAGAACTGAATATCGATTAGTGCTAG: 0.0819 z-score
TTAGATTTCAGACTGGATGAGTGCTAG: 0.619 z-score
TGCTTTCTCTTTCACTACTCGTGCTAG: 4.52 z-score
TTAGGTTTCCATTTCCTTTAGTGCTAG: 8.97 z-score
GACGTTCTCAGTCTCGAGACGTGCTAG: 1.4 z-score
TCATTTTTCCTAATTGAACTGTGCTAG: 3.51 z-score
GACGGTAGCGACTTTCGGGACGTGCTA: 0.236 z-score
TTAGGACTGCGTATCGGTTAGTGCTAG: 0.839 z-score
GACGGACTGGGTACTGGGGACGTGCTA: -0.793 z-score
TTAGGAGTCAACTCTCTAATTGTGCTA: -0.262 z-score

Set 4
Target: Prothrombin, mature alpha-thrombin (F2, Homo sapiens, UniProt P00734)
Method: aptamer microarray, sandwich
Form: DNA with 2'F-ANA
Medium: in vitro
Concentration: 200 nM
Setting: whole 15-mer aptamer, many near background
Together with: Cy3 exosite-II aptamer, 400 nM
Reading: higher = stronger binding
Measurement: mean fluorescence intensity
Strand: GGTTGGTGTGGTTGG
2'F-ANA at 1 2 3 6 7 8 9 12 13: 327 a.u.
2'F-ANA at 1 4 6 11: 99.5 a.u.
2'F-ANA at 1 2 8 9 13: 146 a.u.
2'F-ANA at 1 5 7 10 11 12 13 14 15: 47.8 a.u.
2'F-ANA at 3 5 7 8 10 14: 53.1 a.u.
2'F-ANA at 2 3 4 6 9 13 15: 338 a.u.
2'F-ANA at 4 6 9 11 13: 148 a.u.
2'F-ANA at 1 2 6 7 8 9 10 12: 67.5 a.u.
2'F-ANA at 1 5 8 11 12 13 15: 73.8 a.u.
2'F-ANA at 3 4 6 8 9 10 11 12 13 15: 187 a.u.
2'F-ANA at 3 4 8 9 15: 653 a.u.
2'F-ANA at 3 8 11 13 14: 561 a.u.
2'F-ANA at 3 4 5 6 7 11 14 15: 51.4 a.u.
2'F-ANA at 2 3 5 7 8 11 12 13 15: 136 a.u.
2'F-ANA at 1 7 8 10 12 13: 91.3 a.u.
2'F-ANA at 3 6 9 13 14 15: 425 a.u.
